Measurements collected from several papers.
Numbered parts are unrelated; each lists some results of a single study.

Block 1
Target: Phosphate system positive regulatory protein PHO4, full length, GST-tagged (PHO4, Saccharomyces cerevisiae, UniProt P07270, residues 1-312)
Method: competition protein-binding microarray
Form: double-stranded DNA, one strand shown
Sample: in vitro
Tested at: 2 µM
Notes: whole 60-bp probe, lowest competitor level
With: Cbf1 competitor, 0.05 µM
Reading: higher = stronger binding
Quantity: fluorescence intensity
Target sequence (chain): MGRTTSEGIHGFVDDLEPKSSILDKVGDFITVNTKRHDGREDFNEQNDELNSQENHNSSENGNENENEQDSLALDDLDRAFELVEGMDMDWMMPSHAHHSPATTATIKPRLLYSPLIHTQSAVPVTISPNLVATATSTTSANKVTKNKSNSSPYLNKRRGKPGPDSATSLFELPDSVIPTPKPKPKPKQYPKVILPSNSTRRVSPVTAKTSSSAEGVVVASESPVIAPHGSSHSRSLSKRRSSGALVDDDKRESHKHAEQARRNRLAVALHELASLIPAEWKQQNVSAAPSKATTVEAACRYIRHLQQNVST
CATGAATGTGGTACCCACGTTCTGCGTTAGGACTGTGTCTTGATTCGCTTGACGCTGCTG: 14500 a.u.
CATACCCAACCTTGTCACGCCACTTAAGATATTTGTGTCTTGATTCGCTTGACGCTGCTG: 6270 a.u.
TGTATAGTAATTTGCCACGTGGGACGCTTAAGAAATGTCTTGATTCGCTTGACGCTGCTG: 20600 a.u.
GTCTTGTCTCATTGGTCTGTGGGTGTCCCCACTTCAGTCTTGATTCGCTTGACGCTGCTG: 4230 a.u.
GAATTGGTAGAACTGGTCGTGCCAGTAACACCGGTCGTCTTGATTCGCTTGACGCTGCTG: 5460 a.u.
AAAGCGGTAATTTGTCACAAAACTTCACATATCTATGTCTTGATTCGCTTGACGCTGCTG: 3430 a.u.
CGGGAACACTACGCCAACGTGATGGGCAATTGTGCTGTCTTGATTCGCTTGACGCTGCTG: 9160 a.u.
GCCGTTCAGCGACTCCATGTGCTCGGGAATCCGCTGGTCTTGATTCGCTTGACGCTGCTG: 9990 a.u.
TTGGAGTGGAACCCTCCCGTGTGGAAAACATATTTTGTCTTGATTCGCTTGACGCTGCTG: 4310 a.u.
CATAAGTGAATGTTCCACGTGTTGAGTTTCTTACAGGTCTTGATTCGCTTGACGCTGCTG: 17500 a.u.
CCTGCTGGCCTGTACGACGTGCAAACATTCCATCGCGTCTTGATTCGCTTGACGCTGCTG: 5400 a.u.
GAGCCCTCTGTATTTCATGTGACGGGAGTGTAATTTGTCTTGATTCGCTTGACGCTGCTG: 4010 a.u.
CATTAGTTTTTTACCTGTGTGACGGTTATACATAACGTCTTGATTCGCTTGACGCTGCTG: 4920 a.u.
TTGAATACATAATCGCACGTGATGGAACAATAAAGAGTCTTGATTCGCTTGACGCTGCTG: 18600 a.u.
TTTCTCGAATTTTTGCACGTGAAAACGGTGAACCTCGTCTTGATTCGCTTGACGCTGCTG: 13400 a.u.
CCAAGCGTTCAAGTCAGTGTGACGGACACCAGAGTAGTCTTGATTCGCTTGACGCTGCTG: 3900 a.u.
ATTCGTCAATGAAGGCACATGGGGCGGTAGGGTTCGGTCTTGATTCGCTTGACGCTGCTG: 12400 a.u.
CTTCTGTAAATTTGGCGGGTGGGTGGACGCGCCCCGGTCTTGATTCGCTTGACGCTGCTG: 5300 a.u.
CGTCCTAGTGATTGTCACTTCACTTCCATGAGGAAGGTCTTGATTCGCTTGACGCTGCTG: 4620 a.u.
TCAAGGCGGACATACTTCGTGATGGAAGCTCATGTTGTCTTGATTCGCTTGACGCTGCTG: 5080 a.u.
AAATTACTAAGTTGTCTGGTGGGTGACGCCGTATGAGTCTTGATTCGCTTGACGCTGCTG: 4090 a.u.
ATAGCATCAACCGCACACATGATTAGGATGTAGACGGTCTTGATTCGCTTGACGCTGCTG: 8740 a.u.
TCACAGTATTTTTTTCACGTGCTTTTTTTTCAAGGCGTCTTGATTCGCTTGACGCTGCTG: 15700 a.u.
CTTCTGTAAATTTGGCCAGTGGGTGGACGCGCCCCGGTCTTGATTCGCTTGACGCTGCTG: 3620 a.u.
AAATTACTAAGTTGAAATGTGGGTGACGCCGTATGAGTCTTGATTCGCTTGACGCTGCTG: 5420 a.u.

Block 2
Target: RNA binding protein fox-1 homolog 2, RRM domain, GST-SBP tag (RBFOX2, Homo sapiens, UniProt O43251-10, residues 100-194)
Method: RNA Bind-n-Seq
Form: RNA
Sample: in vitro
Tested at: 365 nM
Notes: natural RNA segment, single round, ends assumed
Relative to: no-protein control
Reading: higher = stronger binding
Quantity: RBNS enrichment (R)
Target sequence (chain): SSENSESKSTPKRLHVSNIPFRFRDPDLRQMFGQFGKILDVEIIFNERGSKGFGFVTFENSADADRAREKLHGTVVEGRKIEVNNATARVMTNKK
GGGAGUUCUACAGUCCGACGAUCAUGGGAGACCCUUGACACCUGCUGAGAAAACAUGCCUCUGCCAAAGGAUGUGAUAUAUAAGUGUACAUAUGUGCUGUACACCUGGGACCUUCACCACUGUAGAUCCCAUGUGGAAUUCUCGGGUGCCAA: 0.76
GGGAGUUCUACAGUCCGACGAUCAACAUUCAUAUGGCCAUUAAUUUUAACAUUAAAUCGUAGGUAGGGCAAUGUAGUAAAAUGAAAGAGAAUUAAGAAAGGUUUUGAAUUCUUAUAACAUAUCCAGCCAUUUCUGGAAUUCUCGGGUGCCAA: 0.847
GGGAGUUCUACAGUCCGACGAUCUGACCUCUGGAGCACCAGGUGCCAGGACUUGUCUCCAUGUGUAUCCAUGCAUUAUAUACCCUGGUGCAAUCACACGACUGUCAUCUAAAGUCCUGGCCCUGGCCCUUACUUGGAAUUCUCGGGUGCCAA: 0.358
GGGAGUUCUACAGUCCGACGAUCCUUCAGGCUCCACAGGCGUCAUGUUGGACUGAGACCUAACUCACUGGACUCAGAGGAGGAAUCGUGGAAAACAAGAGCAAAACUACCCCACACCCCUAUUUCAUGUCUGAUGGAAUUCUCGGGUGCCAA: 0.36
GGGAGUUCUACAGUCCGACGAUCUAUCGUUUUUAAUUUUAAUCAUAGUGCACAUAUUCAAAGAAAGUAUCUUUAAACACAAAAAACCCUGAAAUGUAUAUUUGGAUCGUUUUAAGGCAAUUGAAGACACGCAAUGGAAUUCUCGGGUGCCAA: 0.605
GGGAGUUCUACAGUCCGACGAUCGGGAGGCACGAGCCAGAGACCAGGACCUGCAGGUCCUUUGCUGCUGGGAACUCUCCCAUUUUCAGGUUUCUAGAGCUGUCGAUAAAAUCCUGUGAACUGAGAGCGAGGAGUGGAAUUCUCGGGUGCCAA: 1.01
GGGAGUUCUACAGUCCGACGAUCUCCUGUACUUUGCAACCCCUAAGCUUCAAACCUCUUGCUCAAGACCCAAGACUUAUUCAAAGCUGUGGCUAAGAGCAGAGACGCUGUUCACACAACGCCUCACCACCACCUGGAAUUCUCGGGUGCCAA: 0.359
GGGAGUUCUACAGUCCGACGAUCGCAUGAUGAUAAUAAAAUCAAAAGCUGGAAUACAAUUAAAGCAUCAGAUUUACACUGGCACUGUGCCCUCUACCACUAUAUGCCAAAAACUGCUUCUGUAGUACCAUUUUUGGAAUUCUCGGGUGCCAA: 2.89
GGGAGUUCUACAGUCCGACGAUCUGUUUUGUACUUUUUAUACUGUUGGAUACUUAUAAUCAAAACUUUACUCUAGGGUAUUGAAUAAAUUUAGUCUUAUUAGAAAAAUAAAAGUUGUCUCAUGACUUUGUUUUUGGAAUUCUCGGGUGCCAA: 0.589
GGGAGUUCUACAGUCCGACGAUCACCCUCCACCUGCCCAGAGGCCAACUCUGUUCCCUUCUCCUUUCAUCCCAGAGGGGCCUCAUCAGCAAAGACAGAAACUGAUGUUCCAUGCAUGUCCCUGCUUCCAAAGCUGGAAUUCUCGGGUGCCAA: 7.7
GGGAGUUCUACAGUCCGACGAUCAAUCAUAUUGGGAAAGUGCUAGCUGUGCUCACCUUCAUGGGGCUGUUUCCAGCUCGUCCACAAGCUCAUCGAUUUUCUUUAGUAGAUUACCGGUGUAAAUACCCAGUGUGUGGAAUUCUCGGGUGCCAA: 0.213
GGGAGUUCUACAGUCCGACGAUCAGGUGCAGCCCUAAGGGGUGGACUCCAGAUCUCCCUGCAAGAGACAGCUUGGCUUGGCUUUGGCUGUUGGGGAGGAGUCCCUGCCAUCCCGGUGAGCCUGGGGCUGUUGCUGGAAUUCUCGGGUGCCAA: 0.296

Block 3
Target: Histone acetyltransferase KAT6A, winged helix 2, GST fusion (KAT6A, Homo sapiens, UniProt Q92794, residues 85-181)
Method: protein binding microarray
Form: double-stranded DNA, one strand shown
Sample: in vitro
Tested at: not given
Notes: 8-mer, flanks averaged, mean of 2 arrays, mostly near background
Relative to: not given
Reading: higher = stronger binding
Quantity: E-score
Target sequence (chain): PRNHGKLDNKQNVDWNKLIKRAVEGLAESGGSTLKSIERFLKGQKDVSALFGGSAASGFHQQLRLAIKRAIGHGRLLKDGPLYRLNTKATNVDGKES
ATAACCTC: -0.185
TTATACAA: 0.2
CAAGTTTC: -0.0441
GCGAACCA: 0.0397
AGGGGACT: 0.0796
CTCGGACA: 0.114
AGGGGGTA: 0.00069
GAGCATGA: -0.0703
GTTTACTA: -0.0205
GGGATACC: -0.0349
CGTCATCC: -0.00977
CGCTTTCA: -0.00609
ACTATCAA: -0.0684
AAAGCATA: -0.0274
CGACGTGA: -0.0273
GCCCACCC: 0.145

Block 4
Target: TAR DNA-binding protein 43, full length, His tag (TARDBP, Homo sapiens, UniProt Q13148, residues 1-414)
Method: RNA Bind-n-Seq
Form: RNA
Sample: in vitro
Tested at: 20 nM
Notes: 6-mer, flanks averaged, single round
With: 150 mM LiCl
Relative to: input library
Reading: higher = stronger binding
Quantity: 6-mer enrichment (R)
UCUCGG: 0.894
GGUGGA: 1.28
ACUGUG: 1.06
UGGAUU: 0.946
GAUACC: 0.878
CGGGAA: 0.959
UCAUGC: 0.881
GCCGGU: 0.973
UAUAGA: 0.909
GUCGAC: 0.927
AAAAUU: 0.941
UGCCGC: 0.981
AUAGUC: 0.85
GCGUUA: 1
CCCCAG: 1.11
GGGUGG: 1.62
UACGUG: 1.03
CGCAUG: 0.991
UCGUAU: 0.924
AAAGAU: 0.803
CAAACA: 0.814
UAGGCG: 0.991
GGACGC: 0.992

Block 5
Target: Prothrombin, mature alpha-thrombin (F2, Homo sapiens, UniProt P00734)
Method: aptamer microarray, sandwich
Form: DNA with 2'F-ANA
Sample: in vitro
Tested at: 200 nM
Notes: whole 15-mer aptamer, many near background
With: Cy3 exosite-II aptamer, 400 nM
Reading: higher = stronger binding
Quantity: mean fluorescence intensity
Oligonucleotide: GGTTGGTGTGGTTGG
2'F-ANA at 1 2 3 6 7 8 11 12 13 14 15: 86.2 a.u.
2'F-ANA at 2 4 5 8 11 12 13 15: 82.7 a.u.
2'F-ANA at 2 3 11 12 15: 940 a.u.
2'F-ANA at 1 3 4 7 8 9 10 12 14 15: 55.1 a.u.
2'F-ANA at 4 7 9 10 12 13 15: 92.7 a.u.
2'F-ANA at 3 4 6 7 10 11 12 15: 295 a.u.
2'F-ANA at 2 3 4 5 6 11 12 13 14: 53.3 a.u.
2'F-ANA at 2 4 5 6 7 8 9 12 14 15: 51.8 a.u.
2'F-ANA at 1 2 4 6 7 8 14: 53.9 a.u.
2'F-ANA at 1 5 9 14: 45.4 a.u.
2'F-ANA at 5 6 7 8 13 14: 41.9 a.u.
2'F-ANA at 1 3 5 7 9 11 12 13 14 15: 46.7 a.u.
2'F-ANA at 1 2 7 8 10 12 13 14 15: 50.8 a.u.
2'F-ANA at 1 3 5 6 7 8 10 12 13 14 15: 68.2 a.u.
2'F-ANA at 3 4 5 7 10 11 15: 79 a.u.
2'F-ANA at 4 9 13 14: 195 a.u.
2'F-ANA at 3 5 6 8 11 12 13 14 15: 65.2 a.u.
2'F-ANA at 3 4 5 6 9 11 15: 75.6 a.u.
2'F-ANA at 2 4 5 9 10 11 15: 68.1 a.u.
2'F-ANA at 1 3 5 6 7 9 10 11 12 15: 64.3 a.u.
2'F-ANA at 2 8 9 10 12: 191 a.u.
2'F-ANA at 1 5 7 8 9 10 12 15: 52.7 a.u.
2'F-ANA at 1 2 6 7 8 10 12 13 14 15: 53.3 a.u.
2'F-ANA at 4 6 9 10 14: 58.8 a.u.
2'F-ANA at 2 4 5 7 8 10 11 12 13 14 15: 86.9 a.u.
